Assay results gathered from unrelated publications.
Compare with care: the assays were run in different laboratories. “And” joins repeats or separate records; there may be more than shown. ± gives the spread as reported.
Cell line: A549

SMILES	test	system	conditions	how to read	measurement	value
CC(=O)[C@@H]1CCCN1C(=O)[C@@H]1CCCN1C(=O)[C@H](Cc1ccccc1)NC(=O)[C@@H](NC(=O)[C@@H](NC(=O)[C@@H](NC(=O)[C@@H]1CCCN1C(=O)[C@H](C)NC(=O)OC(C)(C)C)C(C)C)C(C)C)C(C)C	cell growth or viability, SRB				IC50	2550 nM and 2300 nM and 2410 nM
CC(C)[C@H](NC(=O)[C@H](CCCNC(=N)N)NC(=O)[C@@H]1CCCN1C(=O)[C@@H](NC(=O)[C@H](C)NC(=O)[C@H](Cc1ccc(O)cc1)NC(=O)[C@H](CCC(N)=O)NC(=O)[C@H](CCCCN)NC(=O)[C@H](CCCNC(=N)N)NC(=O)[C@@H]1CCCN1C(=O)[C@H](CCC(=O)O)NC(=O)[C@@H](NC(=O)[C@H](C)N)[C@@H](C)O)[C@@H](C)O)C(=O)N[C@@H](Cc1ccccc1)C(=O)N[C@@H](Cc1c[nH]c2ccccc12)C(=O)N[C@H](C(=O)N[C@@H](CC(=O)O)C(=O)N[C@@H](C)C(=O)N1CCC[C@H]1C(=O)NCC(=O)NCCOCCOCCOCCOCCOCCOCCOCCOCCOCCOCCOCCOCCC(=O)N[C@@H](CS)C(N)=O)[C@@H](C)O	phage binding			reference: targeting over control phage	selectivity ratio	1.1 ± 0.32
O=c1n(CCNCCOS(=O)(=O)c2ccccc2)c(=O)n(S(=O)(=O)c2ccccc2)c(=O)n1S(=O)(=O)c1ccccc1	cell growth or viability, MTT		25 µg/mL, 24 h		viability	60.7%
CC(C)(C)C(=O)OCOP(=O)(OCOC(=O)C(C)(C)C)C1CCCN(O)C1=O (centres unmarked)					Log10LC50	> -4 log M
CC(C)C[C@H](NC(=O)[C@H](CC(=O)O)NC(=O)CNC(=O)[C@@H](N)CCCNC(=N)N)C(=O)N[C@@H](C)C(=O)N[C@H](C(=O)N[C@@H](CC(C)C)C(=O)N[C@@H](CCCNC(=N)N)C(=O)N[C@@H](CCC(N)=O)C(=O)N[C@@H](CC(C)C)C(=O)N[C@@H](C)C(=O)N[C@@H](CCC(N)=O)C(=O)N[C@@H](CCC(=O)O)C(=O)N[C@@H](CC(=O)O)C(=O)NCC(=O)N[C@H](C(=O)N[C@H](C(=O)NCC(=O)N[C@H](C(=O)N[C@@H](CCCNC(=N)N)C(=O)NCCOCCOCCOCCOCCOCCOCCOCCOCCOCCOCCOCCOCCC(=O)N[C@@H](CS)C(N)=O)C(C)C)C(C)C)C(C)C)[C@@H](C)O	phage binding			reference: targeting over control phage	selectivity ratio	9.2 ± 1.6
C#CCCCC[C@H](C)C[C@@H](C)C(=O)N[C@@H](C)C(=O)N1CCC[C@H]1C(=O)N[C@H](C(=O)N[C@H](C(=O)N[C@H](C(=O)N[C@@H](Cc1ccccc1)C(=O)N1CCC[C@H]1C(=O)N1CCC[C@H]1C(C)=O)C(C)C)C(C)C)C(C)C	cell growth or viability, SRB				IC50	2230 nM and 2190 nM and 2220 nM
O=C1C=CC(=O)c2ccccc21	MTT			reference: IC50 MRC-5 over IC50 A549	selectivity index	0.69
CC(C)C12OC1C1OC13C1(C)CCC4=C(COC4=O)C1CC1OC13C2OC(=O)CCCOC1OC(CO)C(O)C(O)C1O (centres unmarked)	cell growth or viability, XTT		47 h		IC50	2720 nM
COC(=O)[C@@H](NC(=O)[C@@H](NC(=O)[C@@H](NC(=O)[C@@H]1CCCN1C(=O)[C@H](C)NC(=O)OC(C)(C)C)C(C)C)C(C)C)C(C)C	cell growth or viability, SRB				IC50	1380 nM and 1360 nM and 1150 nM
Cc1ccccc1/C=C/C(=O)N[C@@H](CO)C(=O)N[C@H](C(=O)N[C@H](Cc1ccccc1)C(=O)N[C@@H]1C(=O)N2[C@@H](CC(=O)O)C(=O)Nc3ccccc3[C@@]2(O)[C@@H]1O)[C@@H](C)O					IC50	> 20000 nM
Cc1cc(Oc2nc(N3CC[C@@H](c4ccncc4)C3)ncc2F)[nH]n1	cell proliferation	lung cancer			IC50	40700 nM
Cc1ccccc1/C=C/C(=O)N[C@H]1COC(=O)[C@H](CC(=O)O)NC(=O)[C@H]([C@@H](O)C(=O)c2ccccc2N)NC(=O)[C@@H](Cc2ccccc2)NC(=O)[C@@H](NC(=O)[C@@H](Cc2ccccc2)NC(=O)CN)[C@@H](C)OC1=O					IC50	> 20000 nM
O=C1C=CC(=O)c2c(O)ccc(O)c21	cell growth or viability, MTT				IC50	1420 nM
Cc1c(Cl)c(=O)oc2cc(OCCCCCC[Se]C#N)ccc12	cell growth or viability, SRB				GI50	20 µM
CC1OC(OC2CCC3(C)C(CCC4C3CCC3(C)C(C5=CC(=O)OC5)CCC43O)C2)C(O)C(O)C1OC1OC(CO)C(O)C(O)C1O (centres unmarked)	cell growth or viability, MTT		5 µM, 24 h		inhibition	75.7%
O=C1C=CC(=O)c2c(O)cccc21	MTT			reference: IC50 MRC-5 over IC50 A549	selectivity index	0.1
CC(=O)O[C@H]1C[C@H](O[C@H]2[C@@H](O)C[C@H](O[C@H]3[C@@H](O)C[C@H](O[C@H]4CC[C@@]5(C)[C@H](CC[C@@H]6[C@@H]5CC[C@]5(C)[C@@H](C7=CC(=O)OC7)[C@@H](O)C[C@]65O)C4)O[C@@H]3C)O[C@@H]2C)O[C@H](C)[C@H]1O[C@@H]1O[C@H](CO)[C@@H](O)[C@H](O)[C@H]1O	cell growth or viability, MTT		5 µM, 24 h		inhibition	73.8%
CCCc1cc2cc(-n3nc(CC)c4c3CC3(CCC3)CC4=O)cc(N3CCC(O)CC3)c2c(=O)[nH]1	cell growth or viability, MTS				IC50	2590 nM
O=C1C(Cl)=C(Cl)C(=O)c2ccccc21	MTT			reference: IC50 MRC-5 over IC50 A549	selectivity index	3.01
C[C@H]1O[C@@H](O[C@H]2CC[C@@]3(C)[C@H](CC[C@@H]4[C@@H]3C[C@@H](O)[C@]3(C)[C@@H](C5=CC(=O)OC5)[C@@H](O)C[C@]43O)C2)C[C@H](O)[C@@H]1O	cell growth or viability, MTT		5 µM, 24 h		inhibition	73.1%
N#Cc1ccc(N2N=C3c4ccc(C(=O)O)cc4CCC3C2C2CCCC2)cc1Cl (centres unmarked)	cell growth or viability		48 h		EC50	> 50 µM
CO[C@@H]1[C@@H](O)[C@H](O[C@H]2CC[C@@]3(C)[C@H](CC[C@@H]4[C@@H]3CC[C@]3(C)[C@@H](C5=CC(=O)OC5)[C@@H](O)C[C@]43O)C2)O[C@H](C)[C@@H]1O[C@@H]1O[C@H](CO)[C@@H](O)[C@H](O)[C@H]1O	cell growth or viability, MTT		5 µM, 24 h		inhibition	73.9%
CC(C)Cc1ccc(C(C)C(=O)[O-])cc1.CC(C)Cc1ccc(C(C)C(=O)[O-])cc1.[Cu+2].c1ccncc1.c1ccncc1 (centres unmarked)	cell growth or viability, MTT		48 h		GI50	8 µM

Repeated from above:
SMILES	test	system	conditions	how to read	measurement	value
CC(C)C12OC1C1OC13C1(C)CCC4=C(COC4=O)C1CC1OC13C2OC(=O)CCCOC1OC(CO)C(O)C(O)C1O (centres unmarked)	cell growth or viability, XTT		47 h		IC50	2720 nM
CO[C@@H]1[C@@H](O)[C@H](O[C@H]2CC[C@@]3(C)[C@H](CC[C@@H]4[C@@H]3CC[C@]3(C)[C@@H](C5=CC(=O)OC5)[C@@H](O)C[C@]43O)C2)O[C@H](C)[C@@H]1O[C@@H]1O[C@H](CO)[C@@H](O)[C@H](O)[C@H]1O	cell growth or viability, MTT		5 µM, 24 h		inhibition	73.9%
CC(=O)O[C@H]1C[C@H](O[C@H]2[C@@H](O)C[C@H](O[C@H]3[C@@H](O)C[C@H](O[C@H]4CC[C@@]5(C)[C@H](CC[C@@H]6[C@@H]5CC[C@]5(C)[C@@H](C7=CC(=O)OC7)[C@@H](O)C[C@]65O)C4)O[C@@H]3C)O[C@@H]2C)O[C@H](C)[C@H]1O[C@@H]1O[C@H](CO)[C@@H](O)[C@H](O)[C@H]1O	cell growth or viability, MTT		5 µM, 24 h		inhibition	73.8%
Cc1ccccc1/C=C/C(=O)N[C@H]1COC(=O)[C@H](CC(=O)O)NC(=O)[C@H]([C@@H](O)C(=O)c2ccccc2N)NC(=O)[C@@H](Cc2ccccc2)NC(=O)[C@@H](NC(=O)[C@@H](Cc2ccccc2)NC(=O)CN)[C@@H](C)OC1=O					IC50	> 20000 nM
